Results pooled from the literature.
± gives the spread as reported.
Cell line: HCT-116

O=P1(C2CCCCC2)CCCCC1
late apoptotic cells (Annexin V-FITC/PI flow cytometry; IC50, 72 h): 3.2%

COc1nc(NCc2cn(-c3ccc(C(=O)Nc4ccccc4)cc3)nn2)nc(OC)n1
G0/G1 phase cells (flow cytometry; IC50, 24 h; relative to: untreated): 1.21 fold

NC(=O)NOCCCCCCCCCCCCCCCC[P+](c1ccccc1)(c1ccccc1)c1ccccc1.O=C([O-])C(F)(F)F
cell confluence (cell growth, live-cell imaging; 0.8 µM, control at 90% confluence): 15.8%

COc1nc(NCc2cn(-c3ccc(C(=O)Nc4ccc(C(F)(F)F)cc4)cc3)nn2)nc(OC)n1
cell cycle phase %S (flow cytometry; IC50, 24 h): 36.2%

NC(=O)NO
cell confluence (cell growth, live-cell imaging; 500 µM, control at 90% confluence): 8.79 ± 1.41%

Cn1cnc2c(F)c(Nc3ccc(Br)cc3F)c(C(=O)NOCCO)cc21
viability (10 µM, 72 h): 24.1%

O=[N+]([O-])c1cc(Br)c(O)c(C=NNc2ccc(C(F)(F)F)cc2)c1
IL-6 level (ELISA; culture supernatant; IC50, added: LPS): 41%

O=C(NOC[C@H](O)CO)c1ccc(F)c(F)c1Nc1ccc(I)cc1F
viability (10 µM, 72 h): 17%

NC(=O)NOCCCCCCCCCCCCCC[P+](c1ccccc1)(c1ccccc1)c1ccccc1.O=C([O-])C(F)(F)F
cell confluence (cell growth, live-cell imaging; 0.5 µM, control at 90% confluence): 80.4%

O=[N+]([O-])c1cc(I)c(O)c(C=NNc2ccccc2)c1
TNF-α level (ELISA; culture supernatant; IC50, added: LPS): 88.7%

Repeated from above:
O=P1(C2CCCCC2)CCCCC1
late apoptotic cells (Annexin V-FITC/PI flow cytometry; IC50, 72 h): 3.2%
